Assay results gathered from unrelated publications.
A part holds a random share of what one study measured.
Chain of UniProt P18825 (whole entry, looked up): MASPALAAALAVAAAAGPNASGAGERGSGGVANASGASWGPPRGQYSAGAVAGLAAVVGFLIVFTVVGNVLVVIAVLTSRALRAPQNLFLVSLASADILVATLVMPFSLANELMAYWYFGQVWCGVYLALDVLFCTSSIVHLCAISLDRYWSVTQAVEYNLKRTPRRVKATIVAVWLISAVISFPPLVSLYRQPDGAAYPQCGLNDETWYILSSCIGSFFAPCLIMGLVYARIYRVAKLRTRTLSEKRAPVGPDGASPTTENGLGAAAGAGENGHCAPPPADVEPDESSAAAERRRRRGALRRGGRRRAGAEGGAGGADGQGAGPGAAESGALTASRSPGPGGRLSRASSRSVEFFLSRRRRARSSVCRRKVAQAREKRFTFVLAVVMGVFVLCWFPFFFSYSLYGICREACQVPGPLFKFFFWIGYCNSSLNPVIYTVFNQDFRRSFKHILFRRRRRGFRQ
Chain of UniProt P34969 (whole entry, looked up): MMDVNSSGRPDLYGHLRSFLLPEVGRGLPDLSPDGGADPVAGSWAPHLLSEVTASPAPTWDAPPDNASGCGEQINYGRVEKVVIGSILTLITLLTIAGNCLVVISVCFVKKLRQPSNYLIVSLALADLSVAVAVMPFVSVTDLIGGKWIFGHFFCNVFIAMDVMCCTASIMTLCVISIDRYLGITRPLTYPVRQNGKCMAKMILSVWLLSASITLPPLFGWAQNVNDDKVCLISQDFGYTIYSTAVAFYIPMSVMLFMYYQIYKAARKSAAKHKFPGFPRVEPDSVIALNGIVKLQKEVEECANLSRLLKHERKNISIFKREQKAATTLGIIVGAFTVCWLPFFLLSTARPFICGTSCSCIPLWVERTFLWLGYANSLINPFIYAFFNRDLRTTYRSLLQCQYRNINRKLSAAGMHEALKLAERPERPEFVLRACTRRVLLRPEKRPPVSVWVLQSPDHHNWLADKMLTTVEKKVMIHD
Chain of UniProt P08173 (whole entry, looked up): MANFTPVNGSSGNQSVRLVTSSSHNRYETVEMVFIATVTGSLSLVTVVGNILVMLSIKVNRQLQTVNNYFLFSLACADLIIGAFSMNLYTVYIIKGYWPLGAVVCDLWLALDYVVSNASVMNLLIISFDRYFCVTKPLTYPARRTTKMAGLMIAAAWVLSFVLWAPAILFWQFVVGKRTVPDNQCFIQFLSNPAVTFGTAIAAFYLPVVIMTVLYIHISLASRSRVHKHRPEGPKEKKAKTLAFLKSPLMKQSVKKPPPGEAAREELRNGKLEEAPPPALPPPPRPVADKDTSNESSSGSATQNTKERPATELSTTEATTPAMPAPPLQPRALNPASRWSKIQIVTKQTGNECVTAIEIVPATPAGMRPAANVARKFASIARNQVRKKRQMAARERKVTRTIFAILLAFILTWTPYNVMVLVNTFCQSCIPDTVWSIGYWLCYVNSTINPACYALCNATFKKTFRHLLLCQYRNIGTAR
Chain of UniProt P35367 (whole entry, looked up): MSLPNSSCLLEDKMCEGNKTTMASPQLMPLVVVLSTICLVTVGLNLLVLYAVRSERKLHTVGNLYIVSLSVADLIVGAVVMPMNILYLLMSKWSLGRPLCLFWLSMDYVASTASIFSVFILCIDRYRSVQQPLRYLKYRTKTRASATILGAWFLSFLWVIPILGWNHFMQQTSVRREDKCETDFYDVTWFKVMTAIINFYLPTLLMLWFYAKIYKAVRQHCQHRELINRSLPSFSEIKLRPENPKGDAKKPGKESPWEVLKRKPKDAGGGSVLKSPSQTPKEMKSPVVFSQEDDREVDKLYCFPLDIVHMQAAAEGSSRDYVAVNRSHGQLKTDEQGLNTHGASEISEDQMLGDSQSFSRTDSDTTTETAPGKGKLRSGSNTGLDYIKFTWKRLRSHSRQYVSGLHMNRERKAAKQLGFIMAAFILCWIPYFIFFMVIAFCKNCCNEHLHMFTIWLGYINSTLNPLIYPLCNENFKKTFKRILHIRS
Chain of UniProt P25100 (whole entry, looked up): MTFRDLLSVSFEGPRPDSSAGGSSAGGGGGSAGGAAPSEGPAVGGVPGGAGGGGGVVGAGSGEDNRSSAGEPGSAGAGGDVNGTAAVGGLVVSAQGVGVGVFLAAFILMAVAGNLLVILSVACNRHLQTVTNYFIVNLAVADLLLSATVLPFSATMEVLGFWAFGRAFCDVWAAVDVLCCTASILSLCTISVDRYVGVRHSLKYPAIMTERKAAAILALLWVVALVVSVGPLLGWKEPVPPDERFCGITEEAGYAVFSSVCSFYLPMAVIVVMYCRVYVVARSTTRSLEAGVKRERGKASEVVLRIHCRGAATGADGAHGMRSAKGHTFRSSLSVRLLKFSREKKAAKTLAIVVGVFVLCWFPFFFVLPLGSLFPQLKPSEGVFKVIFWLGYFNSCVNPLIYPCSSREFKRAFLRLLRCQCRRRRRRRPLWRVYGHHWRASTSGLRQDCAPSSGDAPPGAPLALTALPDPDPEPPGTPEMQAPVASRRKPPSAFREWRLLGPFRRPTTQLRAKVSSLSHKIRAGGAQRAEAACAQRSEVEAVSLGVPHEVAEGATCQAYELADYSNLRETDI
Chain of UniProt P18089 (whole entry, looked up): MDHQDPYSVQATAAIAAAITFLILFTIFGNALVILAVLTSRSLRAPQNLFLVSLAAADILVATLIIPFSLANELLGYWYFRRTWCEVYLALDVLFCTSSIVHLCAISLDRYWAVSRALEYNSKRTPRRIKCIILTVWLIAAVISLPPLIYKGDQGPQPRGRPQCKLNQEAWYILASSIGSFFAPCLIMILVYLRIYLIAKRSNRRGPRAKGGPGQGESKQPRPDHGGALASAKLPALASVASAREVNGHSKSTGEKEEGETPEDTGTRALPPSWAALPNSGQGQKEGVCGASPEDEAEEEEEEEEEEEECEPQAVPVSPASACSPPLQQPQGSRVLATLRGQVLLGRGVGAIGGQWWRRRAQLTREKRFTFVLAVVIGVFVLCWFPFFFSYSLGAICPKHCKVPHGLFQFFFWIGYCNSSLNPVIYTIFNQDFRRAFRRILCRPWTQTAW
Chain of UniProt Q9H3N8 (whole entry, looked up): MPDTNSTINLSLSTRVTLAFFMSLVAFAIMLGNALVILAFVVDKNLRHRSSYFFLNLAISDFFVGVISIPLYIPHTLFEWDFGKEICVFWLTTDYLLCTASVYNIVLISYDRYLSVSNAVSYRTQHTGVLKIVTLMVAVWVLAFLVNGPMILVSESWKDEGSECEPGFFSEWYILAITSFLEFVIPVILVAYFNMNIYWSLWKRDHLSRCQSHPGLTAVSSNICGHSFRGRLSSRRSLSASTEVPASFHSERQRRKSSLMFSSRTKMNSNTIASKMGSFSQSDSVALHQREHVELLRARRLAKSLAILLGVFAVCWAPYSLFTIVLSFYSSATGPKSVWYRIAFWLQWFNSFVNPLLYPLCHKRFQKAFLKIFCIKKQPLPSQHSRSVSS
Chain of UniProt P25021 (whole entry, looked up): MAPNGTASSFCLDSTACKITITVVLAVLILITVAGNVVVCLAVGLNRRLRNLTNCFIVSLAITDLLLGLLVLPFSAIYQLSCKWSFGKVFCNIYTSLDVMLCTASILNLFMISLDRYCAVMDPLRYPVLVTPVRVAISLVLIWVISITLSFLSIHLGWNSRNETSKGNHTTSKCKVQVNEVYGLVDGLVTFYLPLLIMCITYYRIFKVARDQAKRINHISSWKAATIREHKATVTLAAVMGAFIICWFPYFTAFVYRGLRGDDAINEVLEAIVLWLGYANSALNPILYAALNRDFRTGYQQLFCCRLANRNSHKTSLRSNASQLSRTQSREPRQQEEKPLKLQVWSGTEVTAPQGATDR
Chain of UniProt P35368 (whole entry, looked up): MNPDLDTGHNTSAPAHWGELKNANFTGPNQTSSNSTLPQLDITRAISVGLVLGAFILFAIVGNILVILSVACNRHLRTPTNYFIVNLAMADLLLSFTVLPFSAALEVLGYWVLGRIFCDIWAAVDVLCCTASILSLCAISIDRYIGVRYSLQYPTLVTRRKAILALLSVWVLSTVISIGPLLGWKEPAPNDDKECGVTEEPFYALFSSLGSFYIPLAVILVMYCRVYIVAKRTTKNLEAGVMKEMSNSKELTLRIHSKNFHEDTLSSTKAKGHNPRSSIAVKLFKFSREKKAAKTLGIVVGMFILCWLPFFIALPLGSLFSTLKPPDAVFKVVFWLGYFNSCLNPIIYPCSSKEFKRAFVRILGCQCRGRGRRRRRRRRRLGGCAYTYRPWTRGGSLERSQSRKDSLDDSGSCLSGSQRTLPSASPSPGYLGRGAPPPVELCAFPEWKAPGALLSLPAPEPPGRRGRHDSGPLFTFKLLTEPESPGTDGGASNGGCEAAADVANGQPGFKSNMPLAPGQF

Set 1 — method: phase 2a trial; species: idiopathic pulmonary fibrosis patients; endpoint: adverse event incidence
SMILES: CC(C)n1cnc(-c2ccc(F)cc2)c1-c1ncc(C(=O)Nc2ccc(N3CCN(C)CC3)cc2)[nH]1
refers to: synovitis; 60 mg once daily, grade 1: 0%
refers to: infection; 60 mg once daily, grade 5: 0%
refers to: QRS axis abnormal; dose not given, grade 4, all arms pooled: 0%
refers to: general and administration site disorders; dose not given, grade 5, all arms pooled: 0%
refers to: drug eruption; 30 mg once daily, grade 1: 0%
refers to: hydroxybutyrate dehydrogenase increased; dose not given, grade 5, all arms pooled: 0%
refers to: QRS axis abnormal; 30 mg once daily, grade 2: 0%
refers to: hepatic enzyme abnormal; dose not given, grade 4, all arms pooled: 0%

Set 2 — species: human; matrix: microsomes or S9; tested at: 2 µM; time: 0.5 h; endpoint: remaining compound
Nc1cccc(-c2c3c(=O)[nH][nH]c(=O)c3c3n2CCC3)c1: > 99%
O=c1[nH]cnc2c1sc1nc(-c3ccccc3)cc(-c3ccccc3)c12: 74%
N#Cc1nc(-c2cccc3ccccc23)oc1NCc1cccnc1: 8.12%
CCc1ccc(-c2nc3sc(N4CCN(C(=O)c5ccnn5C)CC4)nn3c2NC(C)(C)C)cc1: 35.3%
O=C(CN1C(=O)CNC1=O)N1C[C@H]2CC=CC[C@H]2C1: 76.1%
Cc1oc(-c2ccccc2)nc1CNC1(c2ccccc2)CCOCC1: 0.477%

Set 3 — observed: binding; method: radioligand binding; tested at: 10 µM; endpoint: inhibition
SMILES: CNCc1ccccc1-c1csc([C@H](C)Nc2nc(C)nc3cc(OC)c(OC)cc23)c1
Beta-3 adrenergic receptor (ADRB3, Homo sapiens, UniProt P13945): 38.2%
5-hydroxytryptamine receptor 5A (HTR5A, Homo sapiens, UniProt P47898): 78.1%
5-hydroxytryptamine receptor 7 (HTR7, Homo sapiens, UniProt P34969): 70.7%
Muscarinic acetylcholine receptor M2 (CHRM2, Homo sapiens, UniProt P08172): 65.4%
D(1A) dopamine receptor (DRD1, Homo sapiens, UniProt P21728): 89.2%
Muscarinic acetylcholine receptor M4 (CHRM4, Homo sapiens, UniProt P08173): 59.4%
Histamine H1 receptor (HRH1, Homo sapiens, UniProt P35367): 56.7%
Histamine H4 receptor (HRH4, Homo sapiens, UniProt Q9H3N8): 67%
Alpha-1B adrenergic receptor (ADRA1B, Homo sapiens, UniProt P35368): 94.7%
Alpha-2B adrenergic receptor (ADRA2B, Homo sapiens, UniProt P18089): 82.9%
Histamine H2 receptor (HRH2, Homo sapiens, UniProt P25021): 101%
5-hydroxytryptamine receptor 3A (HTR3A, Homo sapiens, UniProt P46098): 16%
Alpha-1D adrenergic receptor (ADRA1D, Homo sapiens, UniProt P25100): 81.2%
Alpha-2C adrenergic receptor (ADRA2C, Homo sapiens, UniProt P18825): 94.2%

Set 4 — observed: enzyme activity; action: inhibitor; tested at: 10 µM; endpoint: inhibition
Target: Calcium/calmodulin-dependent protein kinase type II subunit alpha (CAMK2A, Homo sapiens, UniProt Q9UQM7)
Chain of UniProt Q9UQM7 (whole entry, looked up): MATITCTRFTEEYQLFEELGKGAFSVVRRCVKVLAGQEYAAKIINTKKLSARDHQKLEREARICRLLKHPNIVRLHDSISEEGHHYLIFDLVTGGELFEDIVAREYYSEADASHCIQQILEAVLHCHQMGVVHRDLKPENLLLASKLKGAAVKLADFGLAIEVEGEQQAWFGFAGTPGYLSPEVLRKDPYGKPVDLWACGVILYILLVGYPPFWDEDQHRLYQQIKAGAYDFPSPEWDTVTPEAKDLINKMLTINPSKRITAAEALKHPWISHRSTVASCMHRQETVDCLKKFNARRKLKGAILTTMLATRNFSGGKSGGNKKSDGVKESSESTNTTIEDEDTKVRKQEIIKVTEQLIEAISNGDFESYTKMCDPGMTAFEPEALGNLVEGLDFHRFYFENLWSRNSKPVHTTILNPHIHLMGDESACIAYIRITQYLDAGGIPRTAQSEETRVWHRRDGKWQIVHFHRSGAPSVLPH
O=C1CN(/N=C/c2ccc(-c3ccc([N+](=O)[O-])cc3)o2)C(=O)N1: -7%
Cn1c(Cn2ccc(C(F)(F)F)c(Oc3cc(Cl)cc(C#N)c3)c2=O)n[nH]c1=O: -6%
COc1cc(/C=C/C(=O)O[C@H]2[C@H](O)[C@@H](CO)O[C@@]2(CO)O[C@H]2O[C@H](CO)[C@@H](O)[C@H](O)[C@H]2O)cc(OC)c1OC: 18%
CCCCCCCCCC=O: 33%
CCCC(CCC)C(N)=O: -8%
NC(=O)CC[C@H](N)C(=O)O: 48%
COc1c(-c2ccccc2)oc2ccccc2c1=O: -3%
O=C(O)c1cc(=O)c2c(OCC(O)COc3cccc4oc(C(=O)O)cc(=O)c34)cccc2o1: 1%
